Measured values pooled from the literature.
Parts stem from different laboratories: compare values within a part only. Substitutions count along the parent as printed.

Series 1 — method: protein binding microarray; form: double-stranded DNA, one strand shown; matrix: in vitro; tested at: not given; relative to: not given; reading: higher = stronger binding
Target: Histone acetyltransferase KAT6A, both winged helices, GST fusion (KAT6A, Homo sapiens, UniProt Q92794, residues 1-181)
Notes: 8-mer, flanks averaged, mean of 2 arrays, mostly near background
Residues (chain): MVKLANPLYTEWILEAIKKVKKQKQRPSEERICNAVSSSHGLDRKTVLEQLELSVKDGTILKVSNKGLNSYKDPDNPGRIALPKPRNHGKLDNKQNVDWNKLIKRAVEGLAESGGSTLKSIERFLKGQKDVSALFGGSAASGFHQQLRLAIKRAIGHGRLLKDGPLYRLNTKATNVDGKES
`AGGCTACA` has an E-score of -0.265.
With `ACAGCCCA` the E-score was -0.184.
`AAGGTTTG` has an E-score of -0.118.
`GAACCATA` gave an E-score of -0.0828.
`ATCGGCTG` has an E-score of 0.0328.
With `CAATCACA` the E-score was -0.124.
With `ATAGAAAT` the E-score was -0.0573.
The E-score of `AGCGCTGA` is reported as 0.316.
The E-score of `CTATAGCC` is reported as 0.0203.
The E-score of `CTAAAAAG` is reported as -0.0611.
The E-score of `ATATGGTG` is reported as 0.0228.
`CTCCACAC` gave an E-score of -0.125.
`AATACATT` gave an E-score of -0.0734.
`GTAAAGCA` gave an E-score of -0.0088.
`CGTCGCTA` gave an E-score of 0.223.
For `GCTAATCC`, the E-score was 0.066.
`GGGGTGAC` has an E-score of -0.115.
`ACCGCTCT` gave an E-score of 0.134.
The E-score of `GATGAGGC` is reported as -0.121.
`AAGCAAAC` gave an E-score of -0.0609.
With `AGATATAA` the E-score was -0.0986.

Series 2 — method: DHFR PCA, deep sequencing; matrix: yeast; together with: (+)-ABA 0.11 µM; relative to: wild-type fitted maximum; reading: higher = stronger binding
Target: ABI1, truncated, D143A, DHFR fusion (Arabidopsis thaliana)
Notes: methotrexate growth selection, single substitutions
Starting sequence: PYL1, truncated, DHFR fusion (Arabidopsis thaliana); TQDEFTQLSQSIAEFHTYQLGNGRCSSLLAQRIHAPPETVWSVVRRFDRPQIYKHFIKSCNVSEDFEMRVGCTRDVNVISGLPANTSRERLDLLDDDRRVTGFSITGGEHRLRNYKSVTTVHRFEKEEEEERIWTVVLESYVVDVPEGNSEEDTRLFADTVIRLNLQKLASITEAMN
`S104Q`: “relative binding score” -8.43%.
Under “relative binding score”, `S9V` is recorded as 24%.
Under “relative binding score”, `D144H` is recorded as -3.88%.
Under “relative binding score”, `T17E` is recorded as -6.22%.
`W134Y`: “relative binding score” 72.2%.
`T173Y` — result for “relative binding score”: -3.72%.
`N177E`: “relative binding score” 33.1%.
For `P146G`, “relative binding score” read 14.3%.
Under “relative binding score”, `N61S` is recorded as 54.1%.
For `H34D`, “relative binding score” read 46.3%.
For `E128G`, “relative binding score” read 74.3%.
`C60Y`: “relative binding score” 4.63%.
`K168Y` — result for “relative binding score”: 9.27%.
For `A30K`, “relative binding score” read 15.1%.

Series 3 — target: JUN, bZIP domain (human); method: DHFR protein complementation; matrix: yeast; relative to: wild-type JUN-FOS pair; reading: higher = stronger binding
Notes: single substitutions, most at no-binding floor
Starting sequence: JUN, bZIP domain (human); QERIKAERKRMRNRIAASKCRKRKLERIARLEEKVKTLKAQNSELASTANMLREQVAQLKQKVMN; partner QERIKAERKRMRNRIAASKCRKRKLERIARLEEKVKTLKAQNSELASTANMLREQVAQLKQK
`E32C` gave a binding fitness of -0.781 natural log.
For `T48G`, the binding fitness was -1.08 natural log.
The binding fitness of `R53N` is reported as -0.796 natural log.
For `E32Q`, the binding fitness was -0.475 natural log.
With `E44K` the binding fitness was -0.371 natural log.
The binding fitness of `N42C` is reported as -1.19 natural log.
The binding fitness of `A49Y` is reported as -0.283 natural log.
`K36H` gave a binding fitness of -0.465 natural log.
The binding fitness of `K39V` is reported as -0.163 natural log.
For `M51F`, the binding fitness was -0.273 natural log.
`L52F` gave a binding fitness of -1.09 natural log.
`A29N` gave a binding fitness of -0.393 natural log.
The binding fitness of `R30W` is reported as -0.292 natural log.
The binding fitness of `E54A` is reported as -0.367 natural log.
`T48H` has a binding fitness of -0.456 natural log.
`E44Y` gave a binding fitness of -0.488 natural log.
For `A40C`, the binding fitness was -0.526 natural log.
With `R30K` the binding fitness was -0.279 natural log.

Series 4 — method: protein-binding microarray; form: double-stranded DNA, one strand shown; matrix: in vitro; tested at: 2540 nM top; notes: 60-bp whole probe; together with: salmon DNA 0.4 mg/ml; relative to: random background probes; reading: higher = stronger binding; all sequences stand within: GCCTAGCAC … GTCTTGATTCGCTTGACGCTGCTG
Target: Interferon regulatory factor 3, full length, phosphomimetic (IRF3, Homo sapiens, UniProt Q14653, residues 1-427, S386D/S396D/S398D/S402D/T404D/S405D)
Target sequence (chain): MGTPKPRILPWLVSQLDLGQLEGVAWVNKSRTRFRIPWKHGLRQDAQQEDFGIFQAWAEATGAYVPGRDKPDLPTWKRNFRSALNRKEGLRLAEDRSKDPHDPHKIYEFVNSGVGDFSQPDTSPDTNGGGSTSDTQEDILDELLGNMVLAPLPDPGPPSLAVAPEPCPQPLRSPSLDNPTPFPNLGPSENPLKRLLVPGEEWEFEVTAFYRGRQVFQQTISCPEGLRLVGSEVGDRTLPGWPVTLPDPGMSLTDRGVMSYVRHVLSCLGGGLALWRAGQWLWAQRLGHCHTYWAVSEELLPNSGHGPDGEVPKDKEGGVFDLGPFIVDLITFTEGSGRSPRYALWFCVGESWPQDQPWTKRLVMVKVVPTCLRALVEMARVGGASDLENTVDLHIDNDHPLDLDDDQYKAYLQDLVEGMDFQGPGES
`GACGATTTCAGGTTTCGAGACGTGCTA` — result for “fitted relative affinity”: 2.44 z-score.
`TCACCTAACATGCTTCGAACTGTGCTA`: “fitted relative affinity” 0.805 z-score.
For `TCATGTTTTTTTCTACTTCTGTGCTAG`, “fitted relative affinity” read 0.731 z-score.
`TCACCTTTACTTTCTTTACTGTGCTAG`: “fitted relative affinity” 2.58 z-score.
For `GACGGACTGGGGACTGGGGATGTGCTA`, “fitted relative affinity” read -0.908 z-score.
Under “fitted relative affinity”, `TGAGCATACCATATCAGAAAGTGCTAG` is recorded as 0.745 z-score.
For `TCAACTTTTTTTTTTCCACTGTGCTAG`, “fitted relative affinity” read 0.8 z-score.
Under “fitted relative affinity”, `GACGCTTTCGGGTTTCGAGACGTGCTA` is recorded as 2.95 z-score.
`TTAGATCACAGTATCGATTAGTGCTAG` — result for “fitted relative affinity”: 1.04 z-score.
For `CACGGTATCCTTTTCCTGACGTGCTAG`, “fitted relative affinity” read 7.31 z-score.
`TCACTCCTCCTTCTCTAACTGTGCTAG`: “fitted relative affinity” 1.89 z-score.
Under “fitted relative affinity”, `TTTCTTCTAGACTTCTCCATGTGCTAG` is recorded as 1.94 z-score.
For `TACGATCTCAGTATCGAGACGTGCTAG`, “fitted relative affinity” read 0.948 z-score.
Under “fitted relative affinity”, `TCTACTTCTCTTTTTGCTTTGTGCTAG` is recorded as 2.18 z-score.
`TCAGGTATGCTCATGACACTGTGCTAG`: “fitted relative affinity” -0.463 z-score.
`TTAGATCTCAGTCTGGATTAGTGCTAG` — result for “fitted relative affinity”: 0.17 z-score.
`GACGCACTGAGTCTCGAGACGTGCTAG`: “fitted relative affinity” -0.344 z-score.
For `CCTAGTTTTACTTTCTATCTGTGCTAG`, “fitted relative affinity” read 4.54 z-score.
`GACGATGTCAGTCTCGAGACGTGCTAG`: “fitted relative affinity” 0.121 z-score.
`TCAACTTTGCTCTGTGCAACTGTGCTA`: “fitted relative affinity” -0.24 z-score.

Series 5 — target: CCND1, cyclin fold, Cln2 fusion (human); method: yeast growth competition, sequencing; matrix: yeast; notes: strong parent motif; relative to: not given; reading: higher = stronger binding
Starting sequence: E2F2 docking peptide (human); LPAKRKLDLEGIG
Under “normalised enrichment score”, `L1A` is recorded as 0.625.
`L7A`: “normalised enrichment score” -0.107.
Under “normalised enrichment score”, `D8A` is recorded as -0.0613.
`G13A`: “normalised enrichment score” 1.57.
For `L9F`, “normalised enrichment score” read 4.53.
`K4A` — result for “normalised enrichment score”: 2.92.
`G11A`: “normalised enrichment score” 0.235.

Series 6 — method: RNA Bind-n-Seq; form: RNA; matrix: in vitro; tested at: not given; relative to: input RNA pool; reading: higher = stronger binding
Target: RING finger protein unkempt homolog, zinc fingers 1-6, GST-SBP tag (UNK, Homo sapiens, UniProt Q9C0B0, residues 30-357)
Notes: RNA with constant flanks, human and mouse sites, ends assumed
All sequences stand within: GGGAGUUCUACAGUCCGACGAUC … CAACAGAGGAUUGAGCAUCA
Residues (chain): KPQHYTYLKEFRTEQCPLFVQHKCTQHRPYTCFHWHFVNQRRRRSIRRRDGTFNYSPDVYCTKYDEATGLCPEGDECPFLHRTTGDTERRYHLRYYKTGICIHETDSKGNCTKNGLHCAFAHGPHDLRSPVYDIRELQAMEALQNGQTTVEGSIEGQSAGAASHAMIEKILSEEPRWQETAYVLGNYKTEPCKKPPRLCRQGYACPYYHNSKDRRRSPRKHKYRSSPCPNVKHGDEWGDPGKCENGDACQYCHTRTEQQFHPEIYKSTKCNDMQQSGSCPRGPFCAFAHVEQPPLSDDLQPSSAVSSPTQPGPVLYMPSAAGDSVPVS
`GUGCACACUGGUGAGCGACCACACCAGUGCCCAGAGUGCGGGAAGCGUUUCACCAACAAGCCCUACCUGACCUCGCACCGGCGCAUACAUACCGGCGAGAAGCCCUACCCAUGCACCGAG` gave a bound/input enrichment of 0.0637 ratio.
The bound/input enrichment of `UAUGGCAUCUCCCUUGCUUGCUGCAGCAGGGAUGGAAGAAAUGUCACUUUCUUUUUAAGCUAGCAAGCUUUUUCUUUUUCUUUUUCUUCUUCUAUUUAAAAAUUCUAAUCAUGGAUGCUU` is reported as 6.1 ratio.
The bound/input enrichment of `GCUGAUGACAUAGCUGGGAAGUUUCAGUUCAGCCGGGGCAUGCGCCGCAGUUACGACGCAGGGUUCAAGCUGAUGGUAGUGGAAUAUGCUGAGAGUACCAACAACUGCCAGGCUGCCAAG` is reported as 0.139 ratio.
`GAUGAAUUGAUGACCCUGGCUCAUAAACACAUUGUCAAGACUGUGGAUUUCACGCAGGAUAGUAAUUAUUUGUUAACCGGGGGACAGGAUAAACUGUUACGCAUAUAUGACUUGAACAAA` gave a bound/input enrichment of 1.19 ratio.
`CUGGUCUUGUUCUGGUCAUCUCCUGCCUCUUGUAUGCUGGAAUUUUGGCCUGAAUGACUAUUCUACUUCUCUCUGGGAUAUGAAGUAUUUGUGAGUAACUCAGGAUGUUCCUAAGUGGCC` has a bound/input enrichment of 0.103 ratio.
For `GCAGAUUUCUGUGCAUCGUGCUGUGAACCUCUGAUGACCCUAAAGUUAUCUAUGUUCUCCUUAGUGGAAUAUUUCCUUUUGAGAGAUUGUAUAUUUUAAAAUACUGUCUAGAGUUUAUGA`, the bound/input enrichment was 1.4 ratio.
With `AAUCUCUGCAAGCUCAUGAAGGAGAUCUUGGACAAGAAGGUUGAAAAGGUGACAAUCUCCAAUAGGCUUGUGUCUUCACCCUGCUGCAUUGUGACAAGCACCUAUGGCUGGACAGCCAAC` the bound/input enrichment was 0.156 ratio.
`GUGUCCUGCUUUCAACUUAAAUCACUGAGGCAUCUCUACUGUUCUGUGAGCAUCAGGACUGUAGCGCUGUGUCACCACAUGAGAGUUCAGAAGCAGCCUUUCUGUGGAGGGUGGGAAUGA` has a bound/input enrichment of 0.113 ratio.
With `GAUAAAAUGAUUGAUGUAGCUCUUUACAUUGGGAAAGGAGCUUGACAUGCUUAGCUUCCUAUAGAAGUCAGGACCGGCUGGUGUGCGGAGUGUUUCAGUUCAGAGCCUAAACUGAAAGGG` the bound/input enrichment was 0.53 ratio.
With `AUAAAGACUGAGCACUACAAAACAGAUCUUCAUUCUCCAAGAGGACAAGCGUCGGAUAGUAUAAACCCCAUGUCUAGGGUGCUAAGCCCCCUGAGUCCUCAAAUCAGCCCUUGCAGCUCC` the bound/input enrichment was 0.203 ratio.
For `GUCACCCUCAUGAUGGAUGCCACCAACAUGCCUGCCGUCAAAGCUAUCAUAUACCAGUACAUAGAAGAGAUUUAUCACCGGAUCCCCAACUCAGACCCAUCAUCAAGCAAAACCAAGCAG`, the bound/input enrichment was 0.944 ratio.

Mixed results
`PhoQ, residues 284 288 289 292 302 303 QWGLFV` has a fold induction of 0.986 (PhoP, residues 12 14 15 18 19 FWNTL (Escherichia coli, UniProt P23836); Sort-seq, refers to: YFP reporter; E. coli; PhoQ-PhoP variant library, together with: 10 µM Mg2+; relative to: high Mg2+ state, higher = stronger signaling).

A few entries again (series 5):
For `L9F`, “normalised enrichment score” read 4.53.
Under “normalised enrichment score”, `L1A` is recorded as 0.625.
`G13A`: “normalised enrichment score” 1.57.
`L7A`: “normalised enrichment score” -0.107.
Under “normalised enrichment score”, `D8A` is recorded as -0.0613.
`G11A`: “normalised enrichment score” 0.235.
`K4A` — result for “normalised enrichment score”: 2.92.
